Results from different studies.
Lines come from different studies, so protocols differ. “And” joins repeats or separate records; there may be more than shown.
ADRA2A: Alpha-2A adrenergic receptor (ADRA2A, Homo sapiens, UniProt P08913)
UniProt P08913, sequence (whole entry, looked up): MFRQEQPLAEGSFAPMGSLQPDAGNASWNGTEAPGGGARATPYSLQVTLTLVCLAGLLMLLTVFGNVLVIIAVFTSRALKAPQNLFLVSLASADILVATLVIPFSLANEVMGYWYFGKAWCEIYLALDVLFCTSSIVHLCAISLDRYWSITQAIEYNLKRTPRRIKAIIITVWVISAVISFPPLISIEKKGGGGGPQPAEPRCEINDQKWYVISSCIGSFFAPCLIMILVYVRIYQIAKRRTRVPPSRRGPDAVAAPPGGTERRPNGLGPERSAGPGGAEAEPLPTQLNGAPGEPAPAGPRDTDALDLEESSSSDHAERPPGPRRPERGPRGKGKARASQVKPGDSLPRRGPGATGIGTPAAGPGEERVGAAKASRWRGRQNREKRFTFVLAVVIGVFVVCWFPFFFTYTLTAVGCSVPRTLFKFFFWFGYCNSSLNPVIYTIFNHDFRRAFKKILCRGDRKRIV
HTR2B: 5-hydroxytryptamine receptor 2B (HTR2B, Homo sapiens, UniProt P41595)
UniProt P41595, sequence (whole entry, looked up): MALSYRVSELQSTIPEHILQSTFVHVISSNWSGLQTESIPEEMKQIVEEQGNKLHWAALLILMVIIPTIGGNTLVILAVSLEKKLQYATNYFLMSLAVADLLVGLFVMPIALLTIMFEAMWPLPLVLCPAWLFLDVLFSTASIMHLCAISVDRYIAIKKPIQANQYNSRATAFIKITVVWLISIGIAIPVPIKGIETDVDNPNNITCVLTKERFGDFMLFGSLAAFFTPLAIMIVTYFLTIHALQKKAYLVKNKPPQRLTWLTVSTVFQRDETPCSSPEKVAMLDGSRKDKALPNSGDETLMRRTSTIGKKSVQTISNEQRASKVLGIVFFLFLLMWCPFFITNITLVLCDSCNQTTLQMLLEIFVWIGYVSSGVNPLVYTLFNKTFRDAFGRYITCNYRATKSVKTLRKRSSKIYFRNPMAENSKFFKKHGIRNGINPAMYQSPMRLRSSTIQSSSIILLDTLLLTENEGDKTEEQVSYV
PLEKHA3: PLEKHA3 (Homo sapiens, UniProt Q9HB20)
UniProt Q9HB20, sequence (whole entry, looked up): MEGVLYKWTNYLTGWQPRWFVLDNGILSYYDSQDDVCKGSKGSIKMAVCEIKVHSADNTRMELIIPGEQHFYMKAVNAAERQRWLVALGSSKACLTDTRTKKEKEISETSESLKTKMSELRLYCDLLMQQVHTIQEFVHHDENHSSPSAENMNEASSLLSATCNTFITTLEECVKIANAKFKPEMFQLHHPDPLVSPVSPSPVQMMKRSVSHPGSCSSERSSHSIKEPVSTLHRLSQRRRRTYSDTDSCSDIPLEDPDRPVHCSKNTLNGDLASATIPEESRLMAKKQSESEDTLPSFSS
ADRA1B: Alpha-1B adrenergic receptor (ADRA1B, Homo sapiens, UniProt P35368)
UniProt P35368, sequence (whole entry, unmodified, looked up): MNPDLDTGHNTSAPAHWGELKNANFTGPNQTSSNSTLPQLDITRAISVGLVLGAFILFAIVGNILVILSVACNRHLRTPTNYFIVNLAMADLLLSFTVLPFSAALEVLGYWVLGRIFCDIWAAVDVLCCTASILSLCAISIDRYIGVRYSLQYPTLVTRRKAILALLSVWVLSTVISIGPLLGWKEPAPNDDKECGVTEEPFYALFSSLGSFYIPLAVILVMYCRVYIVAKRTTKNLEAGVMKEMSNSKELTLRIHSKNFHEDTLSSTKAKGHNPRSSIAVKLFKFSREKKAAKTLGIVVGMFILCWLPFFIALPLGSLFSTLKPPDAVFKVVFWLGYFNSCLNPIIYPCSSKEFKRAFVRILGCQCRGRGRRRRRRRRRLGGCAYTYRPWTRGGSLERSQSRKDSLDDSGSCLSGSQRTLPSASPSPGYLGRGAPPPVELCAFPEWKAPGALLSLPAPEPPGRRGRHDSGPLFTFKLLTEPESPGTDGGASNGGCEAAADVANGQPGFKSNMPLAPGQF
UniProt Q92769, sequence (whole entry, looked up): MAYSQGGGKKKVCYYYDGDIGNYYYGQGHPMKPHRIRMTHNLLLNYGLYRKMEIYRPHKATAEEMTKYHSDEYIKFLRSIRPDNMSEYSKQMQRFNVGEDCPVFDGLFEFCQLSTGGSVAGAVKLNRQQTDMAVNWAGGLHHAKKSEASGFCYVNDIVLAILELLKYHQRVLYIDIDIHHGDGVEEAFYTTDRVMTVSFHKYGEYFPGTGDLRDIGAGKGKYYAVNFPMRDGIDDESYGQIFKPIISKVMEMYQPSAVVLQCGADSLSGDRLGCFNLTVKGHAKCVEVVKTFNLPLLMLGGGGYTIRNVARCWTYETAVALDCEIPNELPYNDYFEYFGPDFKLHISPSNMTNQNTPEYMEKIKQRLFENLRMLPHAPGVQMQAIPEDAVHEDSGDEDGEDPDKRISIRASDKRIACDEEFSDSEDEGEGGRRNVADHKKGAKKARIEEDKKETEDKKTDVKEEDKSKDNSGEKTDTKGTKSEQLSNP
UniProt P48039, sequence (whole entry, looked up): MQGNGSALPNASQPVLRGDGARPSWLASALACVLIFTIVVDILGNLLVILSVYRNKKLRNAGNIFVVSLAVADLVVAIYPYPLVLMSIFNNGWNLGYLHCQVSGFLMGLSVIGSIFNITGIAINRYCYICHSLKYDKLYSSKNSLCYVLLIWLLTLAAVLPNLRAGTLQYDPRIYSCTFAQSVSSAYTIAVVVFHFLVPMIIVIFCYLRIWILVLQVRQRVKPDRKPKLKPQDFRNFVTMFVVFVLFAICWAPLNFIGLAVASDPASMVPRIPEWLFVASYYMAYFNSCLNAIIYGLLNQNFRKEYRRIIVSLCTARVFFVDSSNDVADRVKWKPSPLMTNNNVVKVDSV
UniProt Q01959, sequence (whole entry, looked up): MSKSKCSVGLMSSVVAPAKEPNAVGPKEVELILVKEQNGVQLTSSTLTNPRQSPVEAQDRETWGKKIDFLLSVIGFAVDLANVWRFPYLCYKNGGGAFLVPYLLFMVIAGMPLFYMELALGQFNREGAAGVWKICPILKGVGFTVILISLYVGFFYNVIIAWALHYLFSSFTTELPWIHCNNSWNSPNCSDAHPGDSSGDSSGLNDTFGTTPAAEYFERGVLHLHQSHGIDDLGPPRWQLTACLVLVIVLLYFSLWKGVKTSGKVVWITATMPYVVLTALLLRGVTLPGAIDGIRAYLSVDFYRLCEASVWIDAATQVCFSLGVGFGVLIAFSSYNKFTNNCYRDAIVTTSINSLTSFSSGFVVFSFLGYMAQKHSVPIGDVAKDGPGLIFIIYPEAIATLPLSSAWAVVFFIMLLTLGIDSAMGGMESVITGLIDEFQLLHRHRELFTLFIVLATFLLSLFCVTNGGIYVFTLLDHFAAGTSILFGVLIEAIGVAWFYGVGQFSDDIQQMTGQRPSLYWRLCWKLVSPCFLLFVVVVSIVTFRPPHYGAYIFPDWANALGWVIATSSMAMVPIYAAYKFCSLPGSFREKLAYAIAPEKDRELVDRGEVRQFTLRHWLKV
UniProt Q15391, sequence (whole entry, looked up): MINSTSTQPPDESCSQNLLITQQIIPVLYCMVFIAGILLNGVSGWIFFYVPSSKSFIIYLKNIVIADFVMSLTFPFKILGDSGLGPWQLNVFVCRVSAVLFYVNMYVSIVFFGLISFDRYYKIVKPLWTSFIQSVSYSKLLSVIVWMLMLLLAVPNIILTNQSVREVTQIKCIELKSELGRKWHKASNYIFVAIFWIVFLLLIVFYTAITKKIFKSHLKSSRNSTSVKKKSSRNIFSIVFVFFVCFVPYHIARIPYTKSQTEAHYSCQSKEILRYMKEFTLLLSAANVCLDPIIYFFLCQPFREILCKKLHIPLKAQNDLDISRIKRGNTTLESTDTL

| SMILES | target | observed | action | technique | Ki |
| --- | --- | --- | --- | --- | --- |
| O=C(NO)c1cncc(OS(=O)(=O)Oc2ccc(-n3ccnc3)cc2)c1 | HDAC2 (Homo sapiens, UniProt Q92769) | enzyme activity | inhibitor | fluorescence | 0.319 µM |
| COc1ccccc1N1CCN(Cc2cccnc2Oc2ccc(-c3c(C)c(=O)[nH]c(=O)n3C)c(C)c2)CC1 | ADRA2A | ligand displacement |  | radioligand | 0.033 µM and 0.0335 µM |
| N#CC[C@@]12C[C@@H]1[C@@H](n1cnc3c(NC4CCCC4)nc(I)nc31)[C@H](O)[C@@H]2O | HTR2B | ligand displacement |  | radioligand | 0.00679 µM |
| Cc1cc(Oc2ncccc2CN2CCN(c3ccccc3)CC2)ccc1-c1c(C)c(=O)[nH]c(=O)n1C | ADRA2A | ligand displacement |  | radioligand | 0.0568 µM |
| Cn1ccc(-c2ccc(-c3cc(C(=O)O)cc4cc(-c5ccc(C(F)(F)F)cc5)ccc34)cc2)n1 | P2Y purinoceptor 14 (P2RY14, Homo sapiens, UniProt Q15391) | ligand displacement in cells |  | flow cytometry | 0.0206 µM |
| CCOc1ccc(C(=O)CC(SCc2ccccc2)C(=O)O)cc1 (stereo not shown) | PLEKHA3 | ligand displacement |  | FP | 27.2 µM |
| OC[C@@]12C[C@@H]1[C@@H](n1cnc3c(NC(C4CCC4)C4CCC4)nc(C#Cc4ccc(Cl)s4)nc31)[C@H](O)[C@@H]2O | SLC6A3 (Homo sapiens, UniProt Q01959) | ligand displacement |  | radioligand | 1.1 µM |
| Cc1cc(Oc2ncccc2CN2CCN(c3ncccc3C(F)(F)F)CC2)ccc1-c1c(C)c(=O)[nH]c(=O)n1C | ADRA1B | ligand displacement |  | radioligand | 3.17 µM |
| Cc1ccc2[nH]c(=O)c(CNC3CCCCC3)cc2c1 | ADRA1B (Homo sapiens, UniProt P35368, V197I) | ligand displacement in cells |  | flow cytometry | 4.57 µM |
| CCOc1cccc(C(=O)CC(SCc2cccc(Br)c2)C(=O)O)c1 (stereo not shown) | PLEKHA3 | ligand displacement |  | FP | 4.26 µM |
| N#C[C@@]12C[C@@H]1[C@@H](n1cnc3c(N[C@H](C4CCC4)C4CC4)nc(I)nc31)[C@H](O)[C@@H]2O | HTR2B | ligand displacement |  | radioligand | 0.0221 µM |
| CCOc1ccc(C(=O)CC(SCc2ccccc2Br)C(=O)O)cc1 (stereo not shown) | PLEKHA3 | ligand displacement |  | FP | 10.1 µM |
| Cc1cc(Oc2ncccc2CN2CCN(c3ccccc3O)CC2)ccc1-c1c(C)c(=O)[nH]c(=O)n1C | ADRA1B | ligand displacement |  | radioligand | 1.73 µM |
| CC(C)[C@@H](Nc1nc(Cl)nc2c1ncn2[C@H]1[C@H](O)[C@H](O)[C@]2(C#N)C[C@H]12)C1CC1 | HTR2B | ligand displacement |  | radioligand | 0.0213 µM |
| Cc1cc(Oc2ncccc2CN2CCN(c3ccc(F)cc3F)CC2)ccc1-c1c(C)c(=O)[nH]c(=O)n1C | ADRA1B | ligand displacement |  | radioligand | 2.9 µM |
| Clc1ccc(CNc2cccc(-c3nnc[nH]3)c2)c(Br)c1 | MTNR1A (Homo sapiens, UniProt P48039) | cell-free assay |  |  | 0.282 µM |

For quick reference, copied from above:
| SMILES | target | observed | action | technique | Ki |
| --- | --- | --- | --- | --- | --- |
| Cc1cc(Oc2ncccc2CN2CCN(c3ccccc3O)CC2)ccc1-c1c(C)c(=O)[nH]c(=O)n1C | ADRA1B | ligand displacement |  | radioligand | 1.73 µM |
| CC(C)[C@@H](Nc1nc(Cl)nc2c1ncn2[C@H]1[C@H](O)[C@H](O)[C@]2(C#N)C[C@H]12)C1CC1 | HTR2B | ligand displacement |  | radioligand | 0.0213 µM |
